{"data": "Results from different studies", "note": "Every numbered part comes from another study and shows a few of its results, in no order."}
{"data": "Sample 1", "target": "Histone acetyltransferase KAT6A, winged helix 1, GST fusion (KAT6A, Homo sapiens, UniProt Q92794, residues 1-85)", "technique": "protein binding microarray", "form": "double-stranded DNA, one strand shown", "sample": "in vitro", "tested at": "not given", "setting": "8-mer, flanks averaged, mean of 2 arrays, mostly near background", "relative to": "not given", "reading": "higher = stronger binding", "Residues (chain)": "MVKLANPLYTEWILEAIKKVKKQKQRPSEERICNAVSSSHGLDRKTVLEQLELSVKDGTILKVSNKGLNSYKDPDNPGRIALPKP"}
{"Oligonucleotide": "ATTGGGTC", "E-score": -0.116}
{"Oligonucleotide": "TCGCCCCA", "E-score": -0.12}
{"Oligonucleotide": "CGTGCTAC", "E-score": 0.0479}
{"Oligonucleotide": "AACTAGAG", "E-score": 0.053}
{"Oligonucleotide": "CAAGTTGA", "E-score": -0.215}
{"data": "Sample 2", "target": "Interferon regulatory factor 3, full length, phosphomimetic (IRF3, Homo sapiens, UniProt Q14653, residues 1-427, S386D/S396D/S398D/S402D/T404D/S405D)", "technique": "protein-binding microarray", "form": "double-stranded DNA, one strand shown", "sample": "in vitro", "tested at": "2540 nM top", "setting": "60-bp whole probe", "with": "salmon DNA 0.4 mg/ml", "relative to": "random background probes", "reading": "higher = stronger binding", "constant ends, left off below": "GCCTAGCAC … GTGCTAGGTCTTGATTCGCTTGACGCTGCTG", "Target sequence (chain)": "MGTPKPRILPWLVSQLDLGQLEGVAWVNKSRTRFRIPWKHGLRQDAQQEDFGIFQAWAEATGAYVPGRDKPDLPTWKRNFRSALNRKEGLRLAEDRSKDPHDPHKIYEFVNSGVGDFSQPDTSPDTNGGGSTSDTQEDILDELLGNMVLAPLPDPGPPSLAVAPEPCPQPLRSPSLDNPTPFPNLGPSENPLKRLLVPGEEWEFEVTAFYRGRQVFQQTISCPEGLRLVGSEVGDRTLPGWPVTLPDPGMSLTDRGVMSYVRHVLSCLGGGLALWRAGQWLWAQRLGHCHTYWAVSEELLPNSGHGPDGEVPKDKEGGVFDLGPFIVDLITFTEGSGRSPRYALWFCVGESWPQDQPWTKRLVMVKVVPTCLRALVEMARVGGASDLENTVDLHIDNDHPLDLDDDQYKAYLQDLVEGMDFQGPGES"}
{"Oligonucleotide": "TTAGGTCTCCTTATCTTTTA", "fitted relative affinity": "2.24 z-score"}
{"Oligonucleotide": "GACGGTCTCTGTATCGGGAC", "fitted relative affinity": "1.09 z-score"}
{"Oligonucleotide": "TTAGGTATCAGTTTCGGTTA", "fitted relative affinity": "7.52 z-score"}
{"Oligonucleotide": "GACGGTCTCGGTTTCGGAAC", "fitted relative affinity": "5.39 z-score"}
{"Oligonucleotide": "ATAGGACTGGGTATCGGTTA", "fitted relative affinity": "0.694 z-score"}
{"data": "Sample 3", "target": "RNA binding protein fox-1 homolog 2, RRM domain, GST-SBP tag (RBFOX2, Homo sapiens, UniProt O43251-10, residues 100-194)", "technique": "RNA Bind-n-Seq", "form": "RNA", "sample": "in vitro", "tested at": "365 nM", "setting": "natural RNA segment, single round, ends assumed", "relative to": "no-protein control", "reading": "higher = stronger binding", "constant ends, left off below": "GGGAGUUCUACAGUCCGACGAUC … UGGAAUUCUCGGGUGCCAA", "Target sequence (chain)": "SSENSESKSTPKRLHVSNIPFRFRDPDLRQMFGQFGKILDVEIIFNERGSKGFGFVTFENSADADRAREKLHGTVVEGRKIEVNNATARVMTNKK"}
{"Oligonucleotide": "UGUUAUUAGAGAUUACCUCCUGAGAAAAAAGGUUCCGCUUGGAGCAGAGGGGCUGAAUAGCAGAAGGUUGCACCUCCCCCAACCUUAGAUGUUCUAAGUCUUUCCAUUGG", "RBNS enrichment (R)": 0.502}
{"Oligonucleotide": "CAUUUAAACUUUUUAAAAUACUUAUUAAAAAAUUUGUAUAAGCCACUUGUCUUGAAAACUGUGCAACUUUUUAAAGUAAAUUAUUAAGCAGACUGGAAAAGUGAUGUAUU", "RBNS enrichment (R)": 3.53}
{"Oligonucleotide": "AAAGAGAAUUUCUCUUAGUUUAGUUAGGUGUAAUUCAGUAGCUUUAAAUUCUCAGGUCAGAACAUAACAUUUCUCAUUUGUUAAAAGCAGCAAGAAGCCUGGUAAAACUG", "RBNS enrichment (R)": 0.314}
{"Oligonucleotide": "UUAAUUGUUGAUACUUAAGUUGUCAGUAGACAUGCUUUAUUUAUGAUAUAUUUCAGCUUAAAGUUAUGUUAUUAUAUGUGGAUGUAAAUAUAGAUUUGGUGUUUUACAGU", "RBNS enrichment (R)": 2.27}
{"Oligonucleotide": "CAUAUUGAGAUCUGAGCCUUGGACGGGUAGGGAAGGGGUUAAGGGGAGAAAGGUUCUUUUUAGCUUUCGAUCCCUCCAAACGUGGUUGUUAACCCAUUGAAUAUACAGAU", "RBNS enrichment (R)": 0.445}
{"data": "Mixed results"}
{"Molecule": "PhoQ, residues 284 288 289 292 302 303 SLGVVW", "target": "PhoP, residues 12 14 15 18 19 SGWQI (Escherichia coli, UniProt P23836)", "test": "Sort-seq, refers to: YFP reporter", "system": "E. coli", "setting": "PhoQ-PhoP variant library, with: 10 µM Mg2+", "scale": "relative to: high Mg2+ state, higher = stronger signaling", "measurement": "fold induction", "value": 9.18}
{"note": "Repeated from above (sample 1):"}
{"Oligonucleotide": "AACTAGAG", "E-score": 0.053}
{"Oligonucleotide": "CGTGCTAC", "E-score": 0.0479}
